Experimental data from different studies.
Parts stem from different laboratories: compare values within a part only. Several values in a cell are separate wells, animals, samples, runs or records.
Chain of UniProt P35916 (whole entry, looked up): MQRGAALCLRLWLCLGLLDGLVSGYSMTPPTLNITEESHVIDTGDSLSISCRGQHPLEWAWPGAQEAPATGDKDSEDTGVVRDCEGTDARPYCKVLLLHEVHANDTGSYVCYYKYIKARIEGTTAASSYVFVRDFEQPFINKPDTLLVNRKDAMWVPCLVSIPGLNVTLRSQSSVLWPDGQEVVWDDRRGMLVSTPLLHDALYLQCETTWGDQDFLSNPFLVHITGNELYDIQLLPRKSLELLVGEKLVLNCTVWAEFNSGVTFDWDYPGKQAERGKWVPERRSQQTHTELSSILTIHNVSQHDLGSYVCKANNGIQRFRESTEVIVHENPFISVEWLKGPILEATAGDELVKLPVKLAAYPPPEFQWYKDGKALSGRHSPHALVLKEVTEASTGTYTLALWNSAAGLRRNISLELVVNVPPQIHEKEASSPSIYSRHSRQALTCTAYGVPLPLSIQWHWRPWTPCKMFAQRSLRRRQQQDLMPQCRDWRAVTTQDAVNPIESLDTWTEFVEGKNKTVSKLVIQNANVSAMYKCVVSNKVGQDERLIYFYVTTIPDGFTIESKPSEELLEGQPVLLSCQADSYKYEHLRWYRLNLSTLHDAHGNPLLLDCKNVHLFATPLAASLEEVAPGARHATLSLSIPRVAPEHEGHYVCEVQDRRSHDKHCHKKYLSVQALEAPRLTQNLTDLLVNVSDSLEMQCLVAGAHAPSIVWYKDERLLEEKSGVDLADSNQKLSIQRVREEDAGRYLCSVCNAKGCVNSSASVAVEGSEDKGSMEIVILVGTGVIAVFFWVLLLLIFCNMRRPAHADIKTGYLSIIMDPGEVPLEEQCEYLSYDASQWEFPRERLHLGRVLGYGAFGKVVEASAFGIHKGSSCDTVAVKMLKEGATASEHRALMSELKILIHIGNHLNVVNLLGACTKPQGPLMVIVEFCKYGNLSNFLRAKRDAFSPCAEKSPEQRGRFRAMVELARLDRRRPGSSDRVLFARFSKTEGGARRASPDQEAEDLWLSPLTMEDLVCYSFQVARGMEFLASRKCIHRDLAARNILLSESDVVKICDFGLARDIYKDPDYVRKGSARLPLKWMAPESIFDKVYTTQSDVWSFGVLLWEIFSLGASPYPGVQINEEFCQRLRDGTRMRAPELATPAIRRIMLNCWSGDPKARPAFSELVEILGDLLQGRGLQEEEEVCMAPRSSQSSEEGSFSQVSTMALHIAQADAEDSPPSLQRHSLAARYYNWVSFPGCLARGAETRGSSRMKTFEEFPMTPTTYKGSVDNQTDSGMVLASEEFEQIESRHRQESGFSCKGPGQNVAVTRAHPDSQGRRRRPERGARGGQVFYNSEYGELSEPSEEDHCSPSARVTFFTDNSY
Chain of UniProt O00444 (whole entry, looked up): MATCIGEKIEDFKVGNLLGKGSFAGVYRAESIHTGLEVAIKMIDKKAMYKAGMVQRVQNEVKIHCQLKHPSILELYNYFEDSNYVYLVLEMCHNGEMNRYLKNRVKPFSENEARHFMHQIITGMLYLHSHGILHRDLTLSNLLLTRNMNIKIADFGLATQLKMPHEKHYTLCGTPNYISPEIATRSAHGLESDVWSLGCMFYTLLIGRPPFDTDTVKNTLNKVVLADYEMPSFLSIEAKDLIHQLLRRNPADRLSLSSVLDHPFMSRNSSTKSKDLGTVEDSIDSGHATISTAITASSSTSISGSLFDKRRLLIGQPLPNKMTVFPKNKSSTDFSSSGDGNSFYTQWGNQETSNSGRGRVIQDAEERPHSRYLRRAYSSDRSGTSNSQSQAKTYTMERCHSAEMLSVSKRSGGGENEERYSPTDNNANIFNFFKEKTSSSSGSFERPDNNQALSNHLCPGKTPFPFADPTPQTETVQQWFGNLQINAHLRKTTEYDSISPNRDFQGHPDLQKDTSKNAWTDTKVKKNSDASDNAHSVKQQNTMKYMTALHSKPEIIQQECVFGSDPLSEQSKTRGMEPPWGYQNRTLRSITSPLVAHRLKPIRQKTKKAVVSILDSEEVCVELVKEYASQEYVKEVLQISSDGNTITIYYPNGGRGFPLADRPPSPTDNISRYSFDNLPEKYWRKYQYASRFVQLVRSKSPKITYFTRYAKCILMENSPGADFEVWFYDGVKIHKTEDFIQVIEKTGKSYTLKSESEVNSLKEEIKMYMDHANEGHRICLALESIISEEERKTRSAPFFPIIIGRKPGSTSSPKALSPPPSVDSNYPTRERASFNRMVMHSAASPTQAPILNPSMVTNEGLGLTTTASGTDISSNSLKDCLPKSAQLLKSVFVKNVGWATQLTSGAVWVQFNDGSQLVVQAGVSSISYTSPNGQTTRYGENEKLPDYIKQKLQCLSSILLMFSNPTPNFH
Chain of UniProt Q99755 (whole entry, looked up): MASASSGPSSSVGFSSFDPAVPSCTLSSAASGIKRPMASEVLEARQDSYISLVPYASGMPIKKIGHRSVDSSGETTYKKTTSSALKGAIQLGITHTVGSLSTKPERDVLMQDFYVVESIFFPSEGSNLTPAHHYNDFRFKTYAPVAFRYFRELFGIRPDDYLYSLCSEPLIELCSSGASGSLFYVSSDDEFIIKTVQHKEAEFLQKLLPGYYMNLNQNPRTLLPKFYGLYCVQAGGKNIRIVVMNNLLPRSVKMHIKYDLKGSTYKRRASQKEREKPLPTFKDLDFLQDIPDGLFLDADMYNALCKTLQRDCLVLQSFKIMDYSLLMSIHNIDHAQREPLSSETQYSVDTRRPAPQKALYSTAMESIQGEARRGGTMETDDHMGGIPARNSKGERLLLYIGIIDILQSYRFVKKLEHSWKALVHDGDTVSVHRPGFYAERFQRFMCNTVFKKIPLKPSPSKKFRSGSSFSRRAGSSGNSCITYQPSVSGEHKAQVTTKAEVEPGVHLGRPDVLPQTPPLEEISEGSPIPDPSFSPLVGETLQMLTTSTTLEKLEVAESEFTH
Chain of UniProt Q00532 (whole entry, looked up): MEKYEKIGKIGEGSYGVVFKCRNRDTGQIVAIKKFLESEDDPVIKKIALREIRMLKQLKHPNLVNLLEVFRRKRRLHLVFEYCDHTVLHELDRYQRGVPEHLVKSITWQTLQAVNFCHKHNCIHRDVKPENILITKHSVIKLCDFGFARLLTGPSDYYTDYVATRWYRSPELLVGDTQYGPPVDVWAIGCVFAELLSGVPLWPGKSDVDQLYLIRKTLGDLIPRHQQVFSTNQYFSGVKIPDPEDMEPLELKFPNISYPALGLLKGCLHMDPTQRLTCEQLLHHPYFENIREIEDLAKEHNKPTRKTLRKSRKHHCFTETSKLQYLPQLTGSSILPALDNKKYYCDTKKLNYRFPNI
Chain of UniProt Q9UPE1 (whole entry, looked up): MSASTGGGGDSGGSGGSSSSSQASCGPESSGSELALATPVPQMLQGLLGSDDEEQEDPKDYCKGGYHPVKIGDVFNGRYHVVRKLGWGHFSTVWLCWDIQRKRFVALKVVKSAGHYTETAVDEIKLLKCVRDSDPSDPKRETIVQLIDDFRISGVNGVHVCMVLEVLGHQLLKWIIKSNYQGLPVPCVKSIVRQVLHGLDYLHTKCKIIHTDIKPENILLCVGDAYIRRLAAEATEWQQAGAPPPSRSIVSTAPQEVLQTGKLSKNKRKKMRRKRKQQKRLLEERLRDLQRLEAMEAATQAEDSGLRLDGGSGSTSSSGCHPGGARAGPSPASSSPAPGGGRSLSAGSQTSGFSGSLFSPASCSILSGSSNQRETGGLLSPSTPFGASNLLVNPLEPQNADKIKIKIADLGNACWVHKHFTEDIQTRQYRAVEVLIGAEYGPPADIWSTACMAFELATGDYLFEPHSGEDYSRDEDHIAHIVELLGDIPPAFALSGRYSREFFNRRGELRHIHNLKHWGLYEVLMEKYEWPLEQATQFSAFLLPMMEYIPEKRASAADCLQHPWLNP
Chain of UniProt Q8IVH8 (whole entry, looked up): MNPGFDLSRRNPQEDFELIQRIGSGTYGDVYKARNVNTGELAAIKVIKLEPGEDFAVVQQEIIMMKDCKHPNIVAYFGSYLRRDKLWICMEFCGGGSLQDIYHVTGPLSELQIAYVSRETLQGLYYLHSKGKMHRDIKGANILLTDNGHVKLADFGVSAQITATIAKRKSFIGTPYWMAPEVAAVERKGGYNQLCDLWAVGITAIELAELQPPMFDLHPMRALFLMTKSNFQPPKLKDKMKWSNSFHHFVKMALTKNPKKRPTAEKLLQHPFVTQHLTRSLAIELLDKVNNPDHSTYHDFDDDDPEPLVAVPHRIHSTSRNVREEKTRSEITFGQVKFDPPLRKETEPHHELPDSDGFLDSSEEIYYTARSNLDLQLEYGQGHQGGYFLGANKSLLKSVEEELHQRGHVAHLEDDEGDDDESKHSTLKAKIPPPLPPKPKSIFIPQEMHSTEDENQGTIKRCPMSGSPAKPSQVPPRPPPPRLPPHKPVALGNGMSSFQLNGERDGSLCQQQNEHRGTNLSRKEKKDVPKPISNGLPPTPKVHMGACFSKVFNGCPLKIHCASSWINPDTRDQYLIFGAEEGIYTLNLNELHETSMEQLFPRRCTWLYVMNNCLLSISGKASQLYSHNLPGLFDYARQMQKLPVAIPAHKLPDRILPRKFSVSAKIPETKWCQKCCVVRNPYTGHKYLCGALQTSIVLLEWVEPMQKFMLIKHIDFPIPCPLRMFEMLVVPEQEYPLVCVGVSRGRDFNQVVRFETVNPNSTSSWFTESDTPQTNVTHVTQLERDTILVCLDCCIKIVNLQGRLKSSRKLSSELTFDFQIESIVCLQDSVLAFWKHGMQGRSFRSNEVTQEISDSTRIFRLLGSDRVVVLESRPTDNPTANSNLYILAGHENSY
Chain of UniProt P50613 (whole entry, looked up): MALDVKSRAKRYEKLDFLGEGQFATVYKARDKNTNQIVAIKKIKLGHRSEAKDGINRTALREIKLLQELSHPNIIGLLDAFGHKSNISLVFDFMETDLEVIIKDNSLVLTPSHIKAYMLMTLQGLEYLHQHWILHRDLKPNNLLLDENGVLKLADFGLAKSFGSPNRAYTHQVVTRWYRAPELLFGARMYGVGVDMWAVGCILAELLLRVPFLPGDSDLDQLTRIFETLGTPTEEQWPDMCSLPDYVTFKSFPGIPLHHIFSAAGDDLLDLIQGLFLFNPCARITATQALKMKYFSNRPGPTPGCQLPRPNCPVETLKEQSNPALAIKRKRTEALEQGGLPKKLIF

Block 1
Observed: AlphaScreen signal
Method: AlphaScreen counter screen
Medium: His6 peptide without bromodomain
Concentration: 50 µM
Notes: assay interference check
| Compound | inhibition |
| --- | --- |
| NC(=O)c1ccc(-c2nc(-c3ccc4c(c3)OCO4)c(-c3ccccn3)[nH]2)cc1 | 32.5% |
| CC(=O)Nc1ccc(Nc2nc(-c3c(C)nc4ccccn34)cs2)cc1 | 37.2% |
| O=C(O)c1cc(NCc2cc(O)ccc2O)ccc1O | 9.35% |
| Cc1ccc(C=C(C#N)c2nc3ccccc3s2)o1 | 31.6% |

Block 2
Cell line: mouse MPNST tumor cells
Method: high-content nuclear imaging
Refers to: cell number
Concentration: 10 µM
Time: 12 h
Notes: mean of 2 replicates
Baseline: plate mean
Reading: higher = more cells
| Structure (SMILES) | nuclei count |
| --- | --- |
| CN[C@H]1CC[C@@H](c2ccc(Cl)c(Cl)c2)c2ccccc21 | 0.305 z-score and -4.38 z-score |
| C=C1/C(=C\C=C2/CCC[C@]3(C)[C@@H]([C@H](C)/C=C/[C@@H](O)C4CC4)CC[C@@H]23)C[C@@H](O)C[C@@H]1O | -2.53 z-score |
| Cn1ccnc1S | 0.193 z-score |
| Cc1ccc(C(=O)COC(=O)c2cccc(NC(=O)c3ccc([N+](=O)[O-])cc3[N+](=O)[O-])c2)cc1 | 2.36 z-score |
| CC(=O)NCC(=O)N1[C@@H]2CC[C@H]1c1ccc(Nc3ncc(C(F)(F)F)c(NC4CCC4)n3)cc12 | -1.92 z-score |

Block 3
SMILES: Cc1c(NC(=O)c2cc(C(N)=O)nc3cc(F)ccc23)c(C(F)(F)F)nn1Cc1ccc(C#N)cc1
Concentration: 1 µM
| target | observed | method | remaining binding |
| --- | --- | --- | --- |
| CDK7 (Homo sapiens, UniProt P50613) | cell-free assay | competition with immobilised ligand | 52% |
| Ribosomal protein S6 kinase alpha-5, C-terminal kinase domain (RPS6KA5, Homo sapiens, UniProt O75582) | cell-free assay | competition with immobilised ligand | 100% |
| CSNK2A1 (Homo sapiens, UniProt P68400) | cell-free assay | competition with immobilised ligand | 78% |
| MAP4K3 (Homo sapiens, UniProt Q8IVH8) | cell-free assay | competition with immobilised ligand | 99% |
| CSNK1G1 (Homo sapiens, UniProt Q9HCP0) | cell-free assay | competition with immobilised ligand | 100% |
| CDKL3 (Homo sapiens, UniProt Q8IVW4) | binding | competition with immobilised ligand | 80% |
| Tyrosine-protein kinase ABL1, phosphorylated (ABL1, Homo sapiens, UniProt P00519, F317I) | binding | – | 75% |
| FLT3 (Homo sapiens, UniProt P36888, N841I) | cell-free assay | competition with immobilised ligand | 53% |
| PLK3 (Homo sapiens, UniProt Q9H4B4) | cell-free assay | competition with immobilised ligand | 84% |
| MAPK3 (Homo sapiens, UniProt P27361) | cell-free assay | competition with immobilised ligand | 85% |
| EPHB6 (Homo sapiens, UniProt O15197) | cell-free assay | competition with immobilised ligand | 75% |
| CDC42BPA (Homo sapiens, UniProt Q5VT25) | cell-free assay | competition with immobilised ligand | 97% |
| PAK5 (Homo sapiens, UniProt Q9P286) | cell-free assay | competition with immobilised ligand | 92% |
| RET (Homo sapiens, UniProt P07949, V804M) | cell-free assay | competition with immobilised ligand | 100% |
| EPHB3 (Homo sapiens, UniProt P54753) | cell-free assay | competition with immobilised ligand | 96% |
| PIP5K1A (Homo sapiens, UniProt Q99755) | cell-free assay | competition with immobilised ligand | 100% |
| STK24 (Homo sapiens, UniProt Q9Y6E0) | cell-free assay | competition with immobilised ligand | 78% |
| FLT4 (Homo sapiens, UniProt P35916) | cell-free assay | competition with immobilised ligand | 100% |
| TEK (Homo sapiens, UniProt Q02763) | cell-free assay | competition with immobilised ligand | 92% |

Block 4
Cell line: Huh-7
Concentration: 10 µM
Time: 24 h
| Compound | viability |
| --- | --- |
| CN[C@@H]1[C@H](O[C@H]2[C@H](O[C@H]3[C@H](O)[C@@H](O)[C@H](NC(=N)N)[C@@H](O)[C@@H]3NC(=N)N)O[C@@H](C)[C@]2(O)CO)O[C@@H](CO)[C@H](O)[C@H]1O | 98.6% |
| O=C(Nc1ccc(C(=O)O)c(O)c1)c1ccccc1 | 95.6% |
| NCCc1c[nH]cn1 | 102% |

Block 5
Species: mouse
Medium: microsomes or S9
Concentration: 2 µM
Time: 0.5 h
| SMILES | remaining compound [%] |
| --- | --- |
| CS(=O)(=O)CCCC(=O)N(CC(=O)O)C1CCCCC1 | 86.1 |
| CC(CCc1ccccc1)NC(=O)c1noc(-c2ccc[nH]c2=O)n1 (stereo not drawn) | 33.5 |
| CCOc1ccc(OCC)c(NC(=O)c2cc(S(=O)(=O)N3CCc4ccccc43)cn2C)c1 | 0.289 |

Block 6
Compound: CO[C@@H]1[C@H](N(C)C(=O)c2ccccc2)C[C@H]2O[C@]1(C)n1c3ccccc3c3c4c(c5c6ccccc6n2c5c31)C(=O)NC4
Observed: enzyme activity
Action: inhibitor
Concentration: 1 µM
| target | inhibition [%] |
| --- | --- |
| CDPK1 (Plasmodium falciparum, UniProt P62344) | 18 |
| CDKL1 (Homo sapiens, UniProt Q00532) | 57 |
| PLK4 (Homo sapiens, UniProt O00444) | 96 |
| SRPK3 (Homo sapiens, UniProt Q9UPE1) | 4 |

Further values, each from its own experiment
| Structure (SMILES) | species | dose | time | together with | baseline | endpoint | result |
| --- | --- | --- | --- | --- | --- | --- | --- |
| CC(=O)N[C@@H](Cc1c[nH]c2ccccc12)C(=O)N[C@@H](CCC(=O)C=[N+]=[N-])C(=O)OC(C)C | C57BL/6 CES1-/- mice, MC-38 tumour | dose not given | day 15 after inoculation | anti-PD-1 | initial | body weight | 96.8% and 96.2% and 99.6% and 98.2% and 96.1% and 95.2% and 95.9% |

Repeated from above (block 5):
| SMILES | remaining compound [%] |
| --- | --- |
| CS(=O)(=O)CCCC(=O)N(CC(=O)O)C1CCCCC1 | 86.1 |
| CC(CCc1ccccc1)NC(=O)c1noc(-c2ccc[nH]c2=O)n1 (stereo not drawn) | 33.5 |
| CCOc1ccc(OCC)c(NC(=O)c2cc(S(=O)(=O)N3CCc4ccccc43)cn2C)c1 | 0.289 |
